Published values of several laboratories.
Every numbered part comes from another study and shows a few of its results, in no order. “And” joins repeats or separate records; there may be more than shown.
Chain of UniProt P35626 (whole entry, looked up): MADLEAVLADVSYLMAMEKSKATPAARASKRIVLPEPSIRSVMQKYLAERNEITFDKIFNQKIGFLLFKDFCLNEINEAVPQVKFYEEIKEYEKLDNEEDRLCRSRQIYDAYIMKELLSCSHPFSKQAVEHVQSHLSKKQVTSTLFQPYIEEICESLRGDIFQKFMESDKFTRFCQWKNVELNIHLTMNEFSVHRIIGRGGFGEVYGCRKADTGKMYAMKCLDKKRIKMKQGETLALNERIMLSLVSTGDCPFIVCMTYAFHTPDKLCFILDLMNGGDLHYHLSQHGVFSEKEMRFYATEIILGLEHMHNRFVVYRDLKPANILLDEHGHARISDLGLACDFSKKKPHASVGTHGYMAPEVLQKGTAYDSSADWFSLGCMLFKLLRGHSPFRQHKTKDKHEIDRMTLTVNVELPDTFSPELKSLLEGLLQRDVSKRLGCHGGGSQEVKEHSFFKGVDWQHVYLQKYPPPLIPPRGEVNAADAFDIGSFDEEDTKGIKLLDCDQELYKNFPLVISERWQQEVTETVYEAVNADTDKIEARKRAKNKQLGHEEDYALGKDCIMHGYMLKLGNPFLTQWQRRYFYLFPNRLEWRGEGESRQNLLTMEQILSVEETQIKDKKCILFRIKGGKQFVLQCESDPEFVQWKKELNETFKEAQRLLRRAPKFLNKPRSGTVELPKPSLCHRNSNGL
Chain of UniProt P00519 (whole entry, looked up): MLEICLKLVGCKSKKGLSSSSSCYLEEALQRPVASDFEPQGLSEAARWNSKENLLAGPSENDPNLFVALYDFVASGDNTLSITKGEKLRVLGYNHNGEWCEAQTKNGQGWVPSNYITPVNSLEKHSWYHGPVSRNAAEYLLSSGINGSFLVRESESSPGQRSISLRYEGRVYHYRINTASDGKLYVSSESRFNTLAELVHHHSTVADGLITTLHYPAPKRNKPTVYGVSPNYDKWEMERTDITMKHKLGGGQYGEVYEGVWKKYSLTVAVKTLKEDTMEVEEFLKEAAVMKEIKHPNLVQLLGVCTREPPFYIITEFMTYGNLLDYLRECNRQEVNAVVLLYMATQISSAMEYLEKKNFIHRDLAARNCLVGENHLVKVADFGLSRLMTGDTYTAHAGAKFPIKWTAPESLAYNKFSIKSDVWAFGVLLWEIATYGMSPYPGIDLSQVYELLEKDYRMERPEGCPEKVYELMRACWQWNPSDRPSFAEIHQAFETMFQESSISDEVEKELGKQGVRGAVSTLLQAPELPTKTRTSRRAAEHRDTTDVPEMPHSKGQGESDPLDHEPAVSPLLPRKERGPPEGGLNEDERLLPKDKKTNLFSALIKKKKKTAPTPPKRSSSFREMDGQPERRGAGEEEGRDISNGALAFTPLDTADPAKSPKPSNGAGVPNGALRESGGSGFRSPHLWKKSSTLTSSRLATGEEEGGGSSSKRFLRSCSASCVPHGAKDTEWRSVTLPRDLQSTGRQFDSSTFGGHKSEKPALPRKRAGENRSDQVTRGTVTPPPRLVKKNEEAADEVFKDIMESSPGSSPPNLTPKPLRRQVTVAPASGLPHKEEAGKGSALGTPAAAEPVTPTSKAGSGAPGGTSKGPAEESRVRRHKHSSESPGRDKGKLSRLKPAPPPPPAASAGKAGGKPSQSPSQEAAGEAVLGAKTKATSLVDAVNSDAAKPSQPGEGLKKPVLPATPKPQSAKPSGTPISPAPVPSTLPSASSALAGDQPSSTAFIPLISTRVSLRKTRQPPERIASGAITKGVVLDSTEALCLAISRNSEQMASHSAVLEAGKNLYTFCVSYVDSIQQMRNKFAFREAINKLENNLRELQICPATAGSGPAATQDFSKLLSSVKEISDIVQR
Chain of UniProt Q6P3R8 (whole entry, looked up): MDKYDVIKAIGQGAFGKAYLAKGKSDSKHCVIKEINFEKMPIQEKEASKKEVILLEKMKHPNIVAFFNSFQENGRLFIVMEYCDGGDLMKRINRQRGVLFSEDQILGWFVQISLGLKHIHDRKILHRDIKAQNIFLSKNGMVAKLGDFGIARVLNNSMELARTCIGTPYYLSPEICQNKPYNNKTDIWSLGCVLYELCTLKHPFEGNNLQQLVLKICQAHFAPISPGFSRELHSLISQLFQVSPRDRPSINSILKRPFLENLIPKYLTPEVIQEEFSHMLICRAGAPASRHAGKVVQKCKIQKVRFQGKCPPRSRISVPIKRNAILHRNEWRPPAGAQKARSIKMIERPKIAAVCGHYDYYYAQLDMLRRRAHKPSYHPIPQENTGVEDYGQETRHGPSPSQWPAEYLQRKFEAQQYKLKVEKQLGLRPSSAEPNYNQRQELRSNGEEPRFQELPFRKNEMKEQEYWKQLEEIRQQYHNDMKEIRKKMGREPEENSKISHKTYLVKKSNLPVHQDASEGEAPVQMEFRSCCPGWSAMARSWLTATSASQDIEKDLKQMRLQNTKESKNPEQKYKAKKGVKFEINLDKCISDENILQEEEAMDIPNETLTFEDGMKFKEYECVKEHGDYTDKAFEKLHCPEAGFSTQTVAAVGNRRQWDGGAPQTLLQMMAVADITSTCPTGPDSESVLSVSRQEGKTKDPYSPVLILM
Chain of UniProt Q15349 (whole entry, looked up): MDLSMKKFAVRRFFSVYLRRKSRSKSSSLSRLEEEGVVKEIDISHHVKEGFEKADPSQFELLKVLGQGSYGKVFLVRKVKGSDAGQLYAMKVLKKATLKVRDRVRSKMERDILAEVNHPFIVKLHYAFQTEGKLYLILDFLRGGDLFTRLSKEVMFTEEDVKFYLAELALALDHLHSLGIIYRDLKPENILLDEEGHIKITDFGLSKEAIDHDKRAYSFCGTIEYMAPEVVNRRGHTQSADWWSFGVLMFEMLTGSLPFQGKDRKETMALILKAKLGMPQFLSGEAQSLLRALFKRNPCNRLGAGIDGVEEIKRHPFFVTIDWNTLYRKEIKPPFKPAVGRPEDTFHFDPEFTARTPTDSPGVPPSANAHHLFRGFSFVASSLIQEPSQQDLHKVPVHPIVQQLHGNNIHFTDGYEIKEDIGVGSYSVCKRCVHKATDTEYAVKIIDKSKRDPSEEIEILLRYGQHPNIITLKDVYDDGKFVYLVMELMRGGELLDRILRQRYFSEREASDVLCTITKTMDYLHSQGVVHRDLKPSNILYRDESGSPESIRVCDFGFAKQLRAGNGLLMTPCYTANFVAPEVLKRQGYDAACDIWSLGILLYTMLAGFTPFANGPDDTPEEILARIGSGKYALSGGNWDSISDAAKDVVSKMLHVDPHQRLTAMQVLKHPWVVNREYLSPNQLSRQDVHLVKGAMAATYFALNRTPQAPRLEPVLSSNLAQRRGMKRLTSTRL
Chain of UniProt P30530 (whole entry, looked up): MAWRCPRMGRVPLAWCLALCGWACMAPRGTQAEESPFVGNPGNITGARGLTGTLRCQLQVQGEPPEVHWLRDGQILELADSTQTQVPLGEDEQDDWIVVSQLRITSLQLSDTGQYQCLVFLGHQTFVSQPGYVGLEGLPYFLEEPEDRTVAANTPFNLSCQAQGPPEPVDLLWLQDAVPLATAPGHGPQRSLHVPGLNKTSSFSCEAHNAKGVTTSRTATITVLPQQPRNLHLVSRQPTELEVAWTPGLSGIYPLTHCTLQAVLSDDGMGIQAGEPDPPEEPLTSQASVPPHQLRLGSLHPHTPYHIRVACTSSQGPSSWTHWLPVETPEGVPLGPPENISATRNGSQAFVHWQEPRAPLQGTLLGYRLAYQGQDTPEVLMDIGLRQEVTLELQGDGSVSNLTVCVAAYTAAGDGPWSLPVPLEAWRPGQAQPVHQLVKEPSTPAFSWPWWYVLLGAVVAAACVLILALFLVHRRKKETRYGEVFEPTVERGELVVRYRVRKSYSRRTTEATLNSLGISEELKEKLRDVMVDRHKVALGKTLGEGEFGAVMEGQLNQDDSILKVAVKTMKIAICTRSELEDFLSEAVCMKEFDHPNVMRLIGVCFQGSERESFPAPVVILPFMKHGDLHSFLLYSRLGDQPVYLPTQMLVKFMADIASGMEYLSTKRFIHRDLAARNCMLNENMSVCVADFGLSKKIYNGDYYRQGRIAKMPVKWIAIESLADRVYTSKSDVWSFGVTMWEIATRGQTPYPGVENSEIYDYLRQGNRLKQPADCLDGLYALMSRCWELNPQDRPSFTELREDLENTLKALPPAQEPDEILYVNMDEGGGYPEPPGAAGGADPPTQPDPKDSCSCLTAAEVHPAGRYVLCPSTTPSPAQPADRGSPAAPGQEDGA
Chain of UniProt O75914 (whole entry, looked up): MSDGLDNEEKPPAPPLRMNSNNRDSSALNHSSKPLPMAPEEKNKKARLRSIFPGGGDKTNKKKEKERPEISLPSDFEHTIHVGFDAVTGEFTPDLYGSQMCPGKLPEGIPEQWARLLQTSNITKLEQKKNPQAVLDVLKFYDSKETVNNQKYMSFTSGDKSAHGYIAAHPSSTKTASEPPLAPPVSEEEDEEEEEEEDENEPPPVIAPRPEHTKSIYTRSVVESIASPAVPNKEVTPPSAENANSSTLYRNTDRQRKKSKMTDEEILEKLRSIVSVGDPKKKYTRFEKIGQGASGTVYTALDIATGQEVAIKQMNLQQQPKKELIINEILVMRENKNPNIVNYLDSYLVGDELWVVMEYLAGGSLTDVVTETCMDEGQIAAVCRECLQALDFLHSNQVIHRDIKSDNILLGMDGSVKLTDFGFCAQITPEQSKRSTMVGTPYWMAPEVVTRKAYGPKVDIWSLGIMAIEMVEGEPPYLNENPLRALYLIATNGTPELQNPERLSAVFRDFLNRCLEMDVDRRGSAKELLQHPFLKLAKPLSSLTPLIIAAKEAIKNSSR

Set 1
Target: HLA class I histocompatibility antigen, A alpha chain, allele A*80:01 (Homo sapiens, UniProt P04439)
Observed: peptide-MHC binding
Form: peptide
Concentration: concentration not given
Sequence | binding
GTEYRLTLY | inactive
SMRSRARHI | inactive
AVEDFLAFF | inactive
MRIGSMATL | inactive
VHREWFMDL | inactive
YTMDGEYRL | inactive
ETLDVFGPI | inactive
GSFRKICGF | inactive

Set 2
Cell line: HEK-293T/ACE2
Observed: pseudovirus infection
Method: counter-screen
Organism: VSV pseudotyped with VSV-G
Concentration: 10 µM
Time: 16 h
Reference: vehicle-treated
SMILES | GFP-positive cells
C#C[C@]1(O)CC[C@H]2[C@@H]3CCc4cc(OC)ccc4[C@H]3CC[C@@]21C | 124%
Nc1nc2c(ncn2CCC(CO)CO)c(=O)[nH]1 | 104%
CC(C)c1ccc2oc3nc(N)c(C(=O)O)cc3c(=O)c2c1 | 88.1%

Set 3
Cell line: HEK-293T-ACE2-TMPRSS2
Method: cell count
Concentration: 10 µM
Compound | viability [%]
CN(CCc1cn[nH]c1)C(=O)c1coc(COc2cccc(F)c2F)n1 | 67
CCN(CC)Cc1c(O)ccc2cc(-c3ccc(Cl)cc3)c(=O)oc12 | 76
CCCN(CCC)C(=O)c1c[nH]c2ccc(S(=O)(=O)N(C)c3ccccc3OCC)cc2c1=O | 109

Set 4
SMILES: CCOc1ccc(Nc2c3c(nc4ccccc24)CCC3)cc1
Organism: Leishmania donovani
Observed: parasite growth
test system | conditions | inhibition
DD8 amphotericin B-resistant, promastigotes | 6.66 µM | 88% and 81% and 80% and 84% and 82%
DD8 amphotericin B-resistant, intracellular amastigotes | 20 µM | 100% and 101%
– | 3.33 µM, promastigote | 23%

Set 5
SMILES: Cn1cncc1[C@@](O)(COc1ccc(C#N)cc1-c1ccc(OC(F)(F)F)cc1)c1ccc(C#N)cc1
Observed: cell-free assay
Method: competition with immobilised ligand
Concentration: 1 µM
target | remaining binding
LIM domain kinase 2 (LIMK2, Homo sapiens, UniProt P53671) | 82%
PAK3 (Homo sapiens, UniProt O75914) | 91%
TGFBR2 (Homo sapiens, UniProt P37173) | 96%
PRKAA2 (Homo sapiens, UniProt P54646) | 87%
TIE1 (Homo sapiens, UniProt P35590) | 100%
PIK3CA (Homo sapiens, UniProt P42336, E542K) | 81%
EPHA8 (Homo sapiens, UniProt P29322) | 100%
AXL (Homo sapiens, UniProt P30530) | 100%
CDK17 (Homo sapiens, UniProt Q00537) | 95%
PRKD3 (Homo sapiens, UniProt O94806) | 98%
Receptor-type tyrosine-protein kinase FLT3, autoinhibited (FLT3, Homo sapiens, UniProt P36888) | 100%
Ribosomal protein S6 kinase alpha-2, N-terminal kinase domain (RPS6KA2, Homo sapiens, UniProt Q15349) | 100%
Tyrosine-protein kinase ABL1, phosphorylated (ABL1, Homo sapiens, UniProt P00519) | 96%
NEK5 (Homo sapiens, UniProt Q6P3R8) | 98%
MAP2K4 (Homo sapiens, UniProt P45985) | 100%
CAMKK1 (Homo sapiens, UniProt Q8N5S9) | 100%
GRK3 (Homo sapiens, UniProt P35626) | 100%

Single results of other studies
SMILES | target or system | test | test system | conditions | quantity | value
Cn1c(CCCC(=O)O)nc2cc(N(CCCl)CCCl)ccc21 | HaCaT | – | – | 100 µM, 60 h | viability | 116%
COc1ccc(-c2c(Nc3ccccn3)[nH]c3c(C4=CCCCC4)c(-c4ccccc4)nn3c2=O)cc1 | – | – | patients with advanced malignancies | oral, dose not given, treatment-emergent adverse events | grade 3 hyperbilirubinaemia incidence | 7.5%
CNC(=O)Oc1ccccc1OC(C)C | HaCaT | – | – | 100 µM, 60 h | viability | 150%
O=C1CCC(N2Cc3c(ccc4c3OCC43CCN(Cc4ccccn4)CC3)C2=O)C(=O)N1 (centres unmarked) | CRBN/Zinc finger protein Helios (Homo sapiens, UniProt Q96SW2+Q9UKS7) | degrader, HiBiT | HEK293 | 0.1694 nM | protein remaining | 112%

Some of these lines once more (set 3):
Compound | viability [%]
CN(CCc1cn[nH]c1)C(=O)c1coc(COc2cccc(F)c2F)n1 | 67
CCN(CC)Cc1c(O)ccc2cc(-c3ccc(Cl)cc3)c(=O)oc12 | 76
CCCN(CCC)C(=O)c1c[nH]c2ccc(S(=O)(=O)N(C)c3ccccc3OCC)cc2c1=O | 109
